Published values pooled from the literature.
Parts stem from different laboratories: compare values within a part only. Positions count from the first letter of the parent shown.

Series 1
Target: CCNA2, cyclin fold, Cln2 fusion (human)
Method: yeast growth competition, sequencing
Medium: yeast
Setting: strong parent motif
Relative to: not given
Direction: higher = stronger binding
Parent: E2F1 docking peptide (human); PPVKRRLDFETDH
| Substitution | normalised enrichment score |
| --- | --- |
| D8Y | 6.23 |
| R6V | 5.25 |
| P2D | 5.71 |
| E10T | 5.91 |
| T11P | 6.2 |
| R6H | 5.21 |
| P2V | 6.42 |
| R5K | 5.93 |
| K4Q | 5.58 |
| D8L | 5.75 |
| R6A | 5.46 |
| F9I | 1.69 |
| D8A | 6.18 |
| L7A | 0.302 |
| T11K | 5.96 |
| F9N | 0.71 |
| R6W | 4.4 |
| R5M | 3.14 |

Series 2
Target: Interferon regulatory factor 7, full length, phosphomimetic (IRF7, Homo sapiens, UniProt Q92985, residues 1-503, S471D/S472D/S475D/S476D/S477D/S483D/S484D/S487D)
Method: protein-binding microarray
Form: double-stranded DNA, one strand shown
Medium: in vitro
Tested at: 2200 nM top
Setting: 60-bp whole probe
Added: salmon DNA 0.4 mg/ml
Relative to: random background probes
Direction: higher = stronger binding
Constant ends, left off below: GCCTAGCAC … GTCTTGATTCGCTTGACGCTGCTG
Residues (chain): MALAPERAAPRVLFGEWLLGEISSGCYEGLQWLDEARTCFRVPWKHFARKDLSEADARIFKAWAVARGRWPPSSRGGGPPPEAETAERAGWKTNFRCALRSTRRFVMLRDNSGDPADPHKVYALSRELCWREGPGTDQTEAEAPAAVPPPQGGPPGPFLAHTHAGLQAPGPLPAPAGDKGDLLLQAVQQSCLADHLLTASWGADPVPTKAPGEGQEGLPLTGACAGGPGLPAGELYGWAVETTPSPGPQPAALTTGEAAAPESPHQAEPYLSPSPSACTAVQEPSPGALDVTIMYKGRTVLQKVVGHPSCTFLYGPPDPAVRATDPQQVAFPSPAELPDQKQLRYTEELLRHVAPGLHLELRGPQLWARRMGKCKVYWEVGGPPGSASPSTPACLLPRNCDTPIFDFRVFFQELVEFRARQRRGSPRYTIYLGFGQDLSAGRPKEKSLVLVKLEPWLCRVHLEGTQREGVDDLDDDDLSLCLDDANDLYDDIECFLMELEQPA
| Oligonucleotide | fitted relative affinity |
| --- | --- |
| CTGTTTCTGTGTCACAGAGGGTGCTAG | 2.84 z-score |
| TTAGGTCCCCTACTGCTTTAGTGCTAG | 0.412 z-score |
| TTAGGTATTGGTCTCGGTTAGTGCTAG | 0.872 z-score |
| GGCGATATCAGTTTCGAGACGTGCTAG | 3.16 z-score |
| TTAGATTGCAGTCTCGATTAGTGCTAG | 0.289 z-score |
| TTAGGTCTCGGACTGGCTTAGTGCTAG | -0.204 z-score |
| TCCATGACCTACCCTGCGTTGTGCTAG | 0.63 z-score |
| TTAAGTATCGACTATCGGTTAGTGCTA | 0.46 z-score |
| TTAGAACTCAGTCTCGATTAGTGCTAG | 0.0192 z-score |
| AGAAGATAAGCTGCAAGAAAGTGCTAG | -1.51 z-score |
| GACGATCTCAGTAGCGAGACGTGCTAG | -0.0792 z-score |
| GACGGACTGCTTTTCCTGGCGTGCTAG | 0.359 z-score |
| TCATCAACCAGTTTTCTTACTGTGCTA | 0.917 z-score |
| GACGATTTCAGTAACGAGACGTGCTAG | 0.332 z-score |
| CCCTCCCTAATTCTGATTGGGTGCTAG | 0.609 z-score |
| TTAGGTATACTTATCCTTTAGTGCTAG | 0.188 z-score |
| AGCTCTTTCGTTACTTCCTCGTGCTAG | 3.63 z-score |
| CTCCCTTGAGGTTTTCTCTGGGTGCTA | -0.0791 z-score |
| GACGGACTGGACTATCGAGACGTGCTA | -0.544 z-score |

Series 3
Target: Max dimerization protein 1, bHLH-zipper, MAX partner unstated (MXD1, Homo sapiens, UniProt Q05195, residues 56-136)
Method: protein-binding microarray
Form: double-stranded DNA, one strand shown
Medium: in vitro
Tested at: not given
Setting: k-mer, scored over probes, only values ≥0.25
Direction: higher = stronger binding
Construct (chain): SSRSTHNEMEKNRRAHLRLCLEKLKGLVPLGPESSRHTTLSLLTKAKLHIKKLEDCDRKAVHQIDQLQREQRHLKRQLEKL
| Oligonucleotide | E-score |
| --- | --- |
| ACCATATG | 0.376 |
| GTGGGGAA | 0.323 |
| CATGTTGC | 0.335 |
| AATCATGT | 0.374 |
| CATGTCGG | 0.301 |
| CGTGCCTC | 0.28 |
| CACGAGCG | 0.28 |
| AACCACGC | 0.384 |
| CACATGGG | 0.476 |
| CCCCCTCG | 0.255 |
| AATAGCAT | 0.257 |
| CACGCACC | 0.316 |
| ACATGTCT | 0.302 |
| CACGCCGC | 0.377 |
| ACCCACGT | 0.427 |

Further values, each from its own experiment
| Molecule | target | test | system | setting | scale | endpoint | result |
| --- | --- | --- | --- | --- | --- | --- | --- |
| PhoQ, residues 284 288 289 292 302 303 AEGLLW | PhoP, residues 12 14 15 18 19 SGWQI (Escherichia coli, UniProt P23836) | Sort-seq, measured: YFP reporter | E. coli | PhoQ-PhoP variant library, added: 10 µM Mg2+ | relative to: high Mg2+ state, higher = stronger signaling | fold induction | 0.407 |

Repeated from above (series 1):
| Substitution | normalised enrichment score |
| --- | --- |
| T11P | 6.2 |
| F9N | 0.71 |
| P2V | 6.42 |
| R5M | 3.14 |
